Published values gathered from unrelated publications.
Lines come from different studies, so protocols differ. ± marks the error that the study gave.

CCCC[C@H](NC(=O)CNC(=O)CNC(=O)[C@H](CCCCNC(=O)[C@H](CC(=O)O)NC(=O)C(C)c1ccc(CC(C)C)cc1)NC(=O)CN1CCN(CC(=O)O)CCN(CC(=O)O)CCN(CC(=O)O)CC1)C(=O)N[C@H]1CC(=O)NCCCC[C@@H](C(N)=O)NC(=O)[C@H](Cc2c[nH]c3ccccc23)NC(=O)[C@H](CCCNC(=N)N)NC(=O)[C@@H](Cc2ccccc2)NC(=O)[C@H](Cc2c[nH]cn2)NC1=O (some centres unmarked) [lutetium-177 labelled] gave a tissue uptake of 0.87 ± 0.31 %ID/g (C57 mice, tumour-bearing, blood; 2 h).
COc1cccc(OC)c1-c1cc(C(=O)NC2(C(=O)O)C3CC4CC(C3)CC2C4)nn1-c1ccc(C(=O)N(C)CCCN(C)C(=O)[C@H](CCCCNC(=O)[C@H](CC(C)C)NC(=O)C2OC2C(=O)O)NC(=O)CN2CCN(CC(=O)[O-])CCN(CC(=O)[O-])CCN(CC(=O)[O-])CC2)cc1C(C)C.[177Lu+3] (mixture of isomers) gave a tissue uptake of 0.38 %ID/g (mouse HT-29 xenograft, small intestine; 4 h post injection, biodistribution).
COc1ccc(Nc2nc(Nc3ccc(OCCOCC[18F])cc3)ncc2Br)cc1 gave a tissue uptake of 3.33 ± 0.07 %ID (ICR mice, S180 tumour, intestine; intravenous, 30 min, added: PF-562271 33 mg/kg oral block).
With N#C[C@@H]1CC(F)(F)CN1C(=O)CNC(=O)c1ccnc2c(NC(=O)[C@H](CCCCNC(=O)CCOCCOCCOCCOCCOCCOCCNC(=O)CN3CCN(CC(=O)[O-])CCN(CC(=O)[O-])CCN(CC(=O)[O-])CC3)NC(=O)CCCc3ccc(I)cc3)cccc12.[177Lu+3] the tissue uptake was 0.64 ± 0.18 %ID/g (mouse, U-87 MG tumour xenograft, kidneys; 96 h).
Cc1cc(C)n(CCN(CCN)CCCCCCNC(=O)[C@@H](N)Cc2c[nH]cn2)n1.[99Tc+].[C-]#[O+].[C-]#[O+].[C-]#[O+] has a tissue uptake of 2.12 ± 0.04 %IA/g (BALB/c nude mice, A549 xenograft, tumor; intravenous, 15 min).
O=C(NCC1OC2CCC=CCCC2O1)c1ccc([18F])nc1 (centres unmarked) gave a tissue uptake of 1.4 ± 0.1 %ID/g (healthy female BALB/c nude mice, lungs; intravenous, 7.4 MBq per mouse, 60 min).
O=C(O)CCCOc1ccc([18F])cc1-c1cc(-c2ccccc2C(F)(F)F)n(-c2ccccc2)n1 gave a tissue uptake of 0.03 ± 0.02 %ID/g (mouse, urine; intravenous, dose not given, 15 min).
COc1cccc(OC)c1-c1cc(C(=O)NC2(C(=O)O)C3CC4CC(C3)CC2C4)nn1-c1ccc(C(=O)NCCNC(=O)[C@H](CCCCNC(=O)[C@H](CC(C)C)NC(=O)C2OC2C(=O)O)NC(=O)CN2CCN(CC(=O)[O-])CCN(CC(=O)[O-])CCN(CC(=O)[O-])CC2)cc1C(C)C.[177Lu+3] (mixture of isomers) has a tissue uptake of 0.05 %ID/g (mouse, HT-29 xenograft, heart; 168 h post injection).
For N#C[C@@H]1CC(F)(F)CN1C(=O)CNC(=O)c1ccnc2c(NC(=O)CCOCCOCCOCCOCCOCCOCCNC(=O)[C@H](CCCCNC(=O)CN3CCN(CC(=O)[O-])CCN(CC(=O)[O-])CCN(CC(=O)[O-])CC3)NC(=O)CCCc3ccc(I)cc3)cccc12.[177Lu+3], the tissue uptake was 2.24 ± 0.53 %ID/g (mouse, U-87 MG tumour xenograft, salivary gland; 4 h).
CC(C)C[C@H](NC(=O)[C@@H](CCCCNC(=O)[C@@H](Cc1ccccc1)NC(=O)CCCCCCCNC(=O)CN1CCN(CC(=O)O)CCN(CC(=O)O)CCN(CC(=O)O)CC1)NC(=O)[C@H](Cc1ccc(O)cc1)NC(=O)[C@H](CO)NC(=O)[C@H](Cc1c[nH]c2ccccc12)NC(=O)[C@H](Cc1c[nH]cn1)NC(=O)[C@@H]1CCC(=O)N1)C(=O)N[C@@H](CCCNC(=N)N)C(=O)N1CCC[C@H]1C(=O)NCC(N)=O [indium-111 labelled] gave a tissue uptake of 0.41 ± 0.18 %ID/g (biodistribution; male athymic nude mice, DU-145 prostate cancer xenograft, spleen; intravenous, 0.037 MBq, 1 h post-injection).
With COc1cccc(OC)c1-c1cc(C(=O)NC2(C(=O)O)C3CC4CC(C3)CC2C4)nn1-c1ccc(C(=O)N(C)CCOCCOCCN(C)C(=O)[C@H](CCCCNC(=O)[C@H](CC(C)C)NC(=O)C2OC2C(=O)O)NC(=O)CN2CCN(CC(=O)[O-])CCN(CC(=O)[O-])CCN(CC(=O)[O-])CC2)cc1C(C)C.[177Lu+3] (mixture of isomers) the tissue uptake was 2.19 %ID/g (mouse, HT-29 xenograft, HT-29 tumour; 24 h post injection).
The tissue uptake of CCCC[C@H](NC(=O)COCCOCCNC(=O)CN1CCN(CC(=O)O)CCN(CC(=O)O)CC1)C(=O)N[C@H]1CC(=O)NCCCC[C@@H](C(N)=O)NC(=O)[C@H](Cc2c[nH]c3ccccc23)NC(=O)[C@H](CCCNC(=N)N)NC(=O)[C@@H](Cc2ccccc2)NC(=O)[C@H](Cc2c[nH]cn2)NC1=O [fluorine-18 labelled] is reported as 2.07 ± 0.43 %ID/g (C57 mice B16-F10 melanoma, kidneys; intravenous, 0.37 MBq, 1 h).
[123I]c1ccc2nc(-c3ccc(-n4ccnn4)nc3)cn2c1: tissue uptake “not detected” (Wistar rat, adrenals; intravenous, 24 h).
With COc1cccc(OC)c1-c1cc(C(=O)NC2(C(=O)O)C3CC4CC(C3)CC2C4)nn1-c1ccc(C(=O)N(C)CCCN(C)CCCN(C)C(=O)[C@H](CCCCNC(=O)[C@H](CC(C)C)NC(=O)C2OC2C(=O)O)NC(=O)CN2CCN(CC(=O)[O-])CCN(CC(=O)[O-])CCN(CC(=O)[O-])CC2)cc1C(C)C.[177Lu+3] (mixture of isomers) the tissue uptake was 0.11 %ID/g (mouse, HT-29 xenograft, heart; 168 h post injection).

A few entries again:
CCCC[C@H](NC(=O)CNC(=O)CNC(=O)[C@H](CCCCNC(=O)[C@H](CC(=O)O)NC(=O)C(C)c1ccc(CC(C)C)cc1)NC(=O)CN1CCN(CC(=O)O)CCN(CC(=O)O)CCN(CC(=O)O)CC1)C(=O)N[C@H]1CC(=O)NCCCC[C@@H](C(N)=O)NC(=O)[C@H](Cc2c[nH]c3ccccc23)NC(=O)[C@H](CCCNC(=N)N)NC(=O)[C@@H](Cc2ccccc2)NC(=O)[C@H](Cc2c[nH]cn2)NC1=O (some centres unmarked) [lutetium-177 labelled] gave a tissue uptake of 0.87 ± 0.31 %ID/g (C57 mice, tumour-bearing, blood; 2 h).
